Assay results collected from several papers.
Every numbered part comes from another study and shows a few of its results, in no order. Substitutions count along the parent as printed.

Block 1
Target: Histone acetyltransferase KAT6A, winged helix 2, GST fusion (KAT6A, Homo sapiens, UniProt Q92794, residues 85-181)
Technique: protein binding microarray
Form: double-stranded DNA, one strand shown
Medium: in vitro
Concentration: not given
Setting: 8-mer, flanks averaged, mean of 2 arrays, mostly near background
Relative to: not given
Reading: higher = stronger binding
Construct (chain): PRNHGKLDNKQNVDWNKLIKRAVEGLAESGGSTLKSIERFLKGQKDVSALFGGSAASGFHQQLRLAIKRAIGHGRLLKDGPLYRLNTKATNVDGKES
| Oligonucleotide | E-score |
| --- | --- |
| ATACCATC | -0.0325 |
| AATTAGAT | 0.0739 |
| ATGGCGAA | 0.0718 |
| GGAACGGA | -0.0278 |
| ATCCTGTG | -0.183 |
| ATAGGGTA | -0.142 |
| CCTAGTAA | -0.0317 |
| CCGTTTCC | 0.0112 |
| CCTTGCAG | 0.173 |
| CTACTATC | 0.061 |
| CGCAGTGA | 0.117 |
| TAGCCAGA | -0.02 |
| GTTCCAAA | 0.074 |
| CTATAGCA | -0.0166 |
| AGAATATC | 0.0316 |
| CACTCCAG | 0.0508 |
| GGTATAGA | -0.176 |
| GATGGGTA | -0.0731 |
| ATAGGAGC | -0.0687 |
| CGTATGAA | 0.0727 |
| GAAGCCAA | 0.0404 |
| ATGCAAAC | -0.0544 |
| CTATAAAA | -0.00845 |

Block 2
Target: Ras GTPase-activating protein-binding protein 1, RRM domain (G3BP1, Homo sapiens, UniProt Q13283)
UniProt Q13283, sequence (whole entry, looked up): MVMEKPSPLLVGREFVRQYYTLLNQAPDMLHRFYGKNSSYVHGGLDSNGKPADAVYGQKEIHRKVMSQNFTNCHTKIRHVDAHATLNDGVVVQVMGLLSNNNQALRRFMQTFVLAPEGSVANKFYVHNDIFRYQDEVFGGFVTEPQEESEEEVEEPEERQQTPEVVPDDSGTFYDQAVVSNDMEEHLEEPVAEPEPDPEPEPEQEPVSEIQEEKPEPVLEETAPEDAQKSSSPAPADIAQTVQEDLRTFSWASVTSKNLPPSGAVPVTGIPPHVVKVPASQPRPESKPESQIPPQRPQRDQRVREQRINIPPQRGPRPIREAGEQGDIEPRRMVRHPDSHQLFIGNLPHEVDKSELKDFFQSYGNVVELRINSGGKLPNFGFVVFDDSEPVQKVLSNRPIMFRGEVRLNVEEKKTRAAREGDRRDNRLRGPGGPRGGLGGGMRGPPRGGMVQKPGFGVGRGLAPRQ
Technique: RNA Bind-n-Seq
Form: RNA
Medium: in vitro
Concentration: 1 µM
Setting: whole 134-nt RNA, ends assumed
With: 150 mM KCl
Relative to: input library
Reading: higher = stronger binding
| Oligonucleotide | log2 enrichment |
| --- | --- |
| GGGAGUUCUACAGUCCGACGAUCAGUCCUGUGCUACACAUCGUAUGUACCGAAUCGGGAAAAAAAGGGUGGGAAAAAGGGAAAGUAUUAUGUUACGCCGUUCGGAUCUGCACUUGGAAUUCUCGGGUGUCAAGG | 0.591 |
| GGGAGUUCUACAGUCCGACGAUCUGGCCCUGGUGGCAUGCGGGGAGGAAGAGGUGGCCUCAUGGAUCGUAGUGGUCCCGGUGGAAUGUUCAGAGGUGGCCGUGGUGGAGACAGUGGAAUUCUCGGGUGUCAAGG | 0.656 |
| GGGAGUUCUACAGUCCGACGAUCACCAUGCAGGUGGGCAUCUUUGGGAAGUGGGGCAAGGGGGGGAUAGGGAGGGGGGUAACACUUUGGGAACAGGUAAACCCAGGUCGUUUCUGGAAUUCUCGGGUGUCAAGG | -0.619 |
| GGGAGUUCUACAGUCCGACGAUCGUCCUGUGCUACACAUCGUAUGUACCGAAUCGGGGUUUUUGGGGUGGGGUUUUUGGGGAAAGUAUUAUGUUACGCCGUUCGGAUCUGCACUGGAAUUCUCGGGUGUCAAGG | 0.911 |
| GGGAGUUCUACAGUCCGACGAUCUCCUCAAGUCCUGUGCUACACAUCGUAUGUACCGAAUCGGGAGGAGGAGGGAAAGUAUUAUGUUACGCCGUUCGGAUCUGCACUUCCAGCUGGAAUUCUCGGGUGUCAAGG | -0.311 |
| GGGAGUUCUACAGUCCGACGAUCUCAAGUCCUGUGCUACACAUCGUAUGUACCGAAUCGGUUUUUGGUUUGGAAAGGAAAGUAUUAUGUUACGCCGUUCGGAUCUGCACUUCCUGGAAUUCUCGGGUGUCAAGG | -0.212 |
| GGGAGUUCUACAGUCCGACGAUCAAGUCCUGUGCUACACAUCGUAUGUACCGAAUCGGGGUUUGGGGUUUGGUUUGGGGAAAGUAUUAUGUUACGCCGUUCGGAUCUGCACUUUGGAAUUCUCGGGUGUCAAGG | -0.302 |
| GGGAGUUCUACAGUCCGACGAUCACCAUGCAGGUGGGCAUCUUUGGGAAGUGGGGCAAGGGGGGGAUAGGGAGGGGGGUCACACUUUGGGAACAGGUGGUCCCAGGUCGUUUCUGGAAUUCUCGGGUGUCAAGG | 0.719 |
| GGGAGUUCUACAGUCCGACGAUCACCAUGCAGGUGGGCAUCUUUGAAAAGUGGGGCAAGGGGGGGAUAGGGAGGGGGGUAACACUUUGGGAACAGGUGGUCCCAGGUCGUUUCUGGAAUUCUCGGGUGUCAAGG | -0.532 |

Block 3
Target: CCNF, cyclin fold, Cln2 fusion (human)
Technique: yeast growth competition, sequencing
Medium: yeast
Setting: strong parent motif
Relative to: not given
Reading: higher = stronger binding
Parent: E2F1 docking peptide (human); PPVKRRLDFETDH
| Variant | normalised enrichment score |
| --- | --- |
| E10T | 7.58 |
| T11N | 7.4 |
| F9S | 1.16 |
| R6N | 5.31 |
| F9E | 0.975 |
| L7E | 0.272 |
| T11G | 7.44 |
| K4Y | 6.53 |
| K4I | 6.64 |
| R5G | 0.596 |
| L7I | 6.67 |
| R5I | 2.3 |
| D12A | 8.06 |
| D12N | 7.67 |
| V3S | 7.27 |
| T11E | 6.65 |
| F9R | 0.925 |
| F9W | 5.66 |
| V3M | 6.08 |
| E10K | 7.89 |
| D8M | 7.9 |
| E10F | 8.45 |
| T11D | 6.71 |

Block 4
Target: RNA binding protein fox-1 homolog 2, RRM domain, GST-SBP tag (RBFOX2, Homo sapiens, UniProt O43251-10, residues 100-194)
Technique: RNA Bind-n-Seq
Form: RNA
Medium: in vitro
Concentration: 365 nM
Setting: natural RNA segment, single round, ends assumed
Relative to: no-protein control
Reading: higher = stronger binding
Target sequence (chain): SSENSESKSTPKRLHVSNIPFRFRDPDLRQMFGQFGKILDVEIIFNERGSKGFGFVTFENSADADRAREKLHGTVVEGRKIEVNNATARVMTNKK
| Oligonucleotide | RBNS enrichment (R) |
| --- | --- |
| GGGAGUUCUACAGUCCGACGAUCGAAGAAGAUUUUGAGGAUGAUGAUGAGUGGGAAGACUGAUCUAUAUAUUAUAUAUAUAUAUUUUUAAGGUGAAAUACUAAACACUACUUCCUGUCUAUUGAUCUGUAAAAUGGAAUUCUCGGGUGCCAA | 0.899 |
| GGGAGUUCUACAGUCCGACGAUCGGCCCACUUGGGCACCCACGCUUCUGUCCACUUCUGGUUGCCAGGAGACAGCAAGCAAAGCCAGCAGGACAUGAAGUUGCUAUUAAAUGGACUUCGUGAUUUUUGUUUUGUGGAAUUCUCGGGUGCCAA | 0.313 |
| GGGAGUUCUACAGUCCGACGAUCAAGAGCCAGAGGAGUUUUUGCUGGGACAAAUACUGGUCCAAACAACUCAAAUACUACUUUUCAAAAGAGACCGAAGGAAGAGGAAUGGGAUCCAGAAUAUACCCCAAAGAUGGAAUUCUCGGGUGCCAA | 0.495 |
| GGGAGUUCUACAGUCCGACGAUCUAAUAGCGAGUUUCUGGCCCCUGGGCAAUUUUGUACCUUGUAAUUAUCCUAUGGUGAUGCUGUUUCUCGUUGCUAAUGGCAUUAGUGCCCCUGUAUCCUAGUGAUAACUCUGGAAUUCUCGGGUGCCAA | 0.781 |
| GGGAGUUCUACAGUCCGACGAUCUGUCAGGCCCUUGGACAAGAUCCAUAUUCUUAGAAAAUUAAUGAGUUCCAUCUCGUUAGGAAUUGGUUGAUGAGGUAUGGUACAUCUGCAUUUCUUUAACCAUAGCUGUAUGGAAUUCUCGGGUGCCAA | 0.356 |
| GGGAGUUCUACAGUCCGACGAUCGGAACUCCUAAGGAAGUCACAGGUUCACACCGUGGGGAUUUUCAGGAUAGCAUGGAGACCAGAGAAUCCCGGUUCGGUUGUUCUCACUCGGUGAGCCUUGAGAAGGAAGAUGGAAUUCUCGGGUGCCAA | 12.6 |
| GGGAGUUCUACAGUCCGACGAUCCCCACAUCUCUCUAAUGAUAAGACAUUGGCUCGCCUCUGACCAGAGCCCCAGCACCAGAGAGCGGAAGAUGCAGAAUUGUCAAAUGACCUGCUGGGGGAGGUUGUAGGAGUGGAAUUCUCGGGUGCCAA | 0.284 |
| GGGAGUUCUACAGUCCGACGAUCUCCCUGAGCCACAUGUUUCACACAAGUGUAGAAAAUGCCAGGGAUCCACCACAAGAUGGAGAUGGUCAGCACAAACCGAUUCUGUUCCUCUUUAAAGUGUAUAUUAGCCAUGGAAUUCUCGGGUGCCAA | 0.362 |

For quick reference, copied from above (block 4):
| Oligonucleotide | RBNS enrichment (R) |
| --- | --- |
| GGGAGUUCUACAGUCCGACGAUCAAGAGCCAGAGGAGUUUUUGCUGGGACAAAUACUGGUCCAAACAACUCAAAUACUACUUUUCAAAAGAGACCGAAGGAAGAGGAAUGGGAUCCAGAAUAUACCCCAAAGAUGGAAUUCUCGGGUGCCAA | 0.495 |
| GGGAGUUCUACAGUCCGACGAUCUAAUAGCGAGUUUCUGGCCCCUGGGCAAUUUUGUACCUUGUAAUUAUCCUAUGGUGAUGCUGUUUCUCGUUGCUAAUGGCAUUAGUGCCCCUGUAUCCUAGUGAUAACUCUGGAAUUCUCGGGUGCCAA | 0.781 |
| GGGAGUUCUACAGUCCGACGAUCUGUCAGGCCCUUGGACAAGAUCCAUAUUCUUAGAAAAUUAAUGAGUUCCAUCUCGUUAGGAAUUGGUUGAUGAGGUAUGGUACAUCUGCAUUUCUUUAACCAUAGCUGUAUGGAAUUCUCGGGUGCCAA | 0.356 |
| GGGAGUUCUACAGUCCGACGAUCGGAACUCCUAAGGAAGUCACAGGUUCACACCGUGGGGAUUUUCAGGAUAGCAUGGAGACCAGAGAAUCCCGGUUCGGUUGUUCUCACUCGGUGAGCCUUGAGAAGGAAGAUGGAAUUCUCGGGUGCCAA | 12.6 |
